Measurements collected from several papers.
Each numbered part is a random draw from the data of one study; scales do not carry over between parts. Changes are numbered by the printed parent chain.

Set 1
Target: Prothrombin, mature alpha-thrombin (F2, Homo sapiens, UniProt P00734)
Technique: aptamer microarray, sandwich
Form: DNA with 2'F-ANA
Medium: in vitro
Tested at: 200 nM
Setting: whole 15-mer aptamer, many near background
With: Cy3 exosite-II aptamer, 400 nM
Direction: higher = stronger binding
Sequence: GGTTGGTGTGGTTGG
| Modification | mean fluorescence intensity [a.u.] |
| --- | --- |
| 2'F-ANA at 1 3 5 8 9 14 15 | 45.3 |
| 2'F-ANA at 1 4 6 8 11 12 | 228 |
| 2'F-ANA at 3 4 5 6 7 9 10 11 14 | 47.3 |
| 2'F-ANA at 1 2 5 8 13 | 48 |
| 2'F-ANA at 1 2 8 9 10 12 13 14 | 50.8 |
| 2'F-ANA at 1 2 5 6 7 9 13 | 49.7 |
| 2'F-ANA at 1 2 5 6 7 9 11 12 14 15 | 48.7 |
| 2'F-ANA at 1 2 3 6 8 11 14 | 69.7 |

Set 2
Target: Sal-like protein 4, full length isoform B (SALL4, Homo sapiens, UniProt Q9UJQ4-2, residues 1-616)
Technique: universal PBM
Form: double-stranded DNA, one strand shown
Medium: in vitro
Tested at: not given
Setting: 8-mer, flanks averaged, mean of replicates
Direction: higher = stronger binding
Residues (chain): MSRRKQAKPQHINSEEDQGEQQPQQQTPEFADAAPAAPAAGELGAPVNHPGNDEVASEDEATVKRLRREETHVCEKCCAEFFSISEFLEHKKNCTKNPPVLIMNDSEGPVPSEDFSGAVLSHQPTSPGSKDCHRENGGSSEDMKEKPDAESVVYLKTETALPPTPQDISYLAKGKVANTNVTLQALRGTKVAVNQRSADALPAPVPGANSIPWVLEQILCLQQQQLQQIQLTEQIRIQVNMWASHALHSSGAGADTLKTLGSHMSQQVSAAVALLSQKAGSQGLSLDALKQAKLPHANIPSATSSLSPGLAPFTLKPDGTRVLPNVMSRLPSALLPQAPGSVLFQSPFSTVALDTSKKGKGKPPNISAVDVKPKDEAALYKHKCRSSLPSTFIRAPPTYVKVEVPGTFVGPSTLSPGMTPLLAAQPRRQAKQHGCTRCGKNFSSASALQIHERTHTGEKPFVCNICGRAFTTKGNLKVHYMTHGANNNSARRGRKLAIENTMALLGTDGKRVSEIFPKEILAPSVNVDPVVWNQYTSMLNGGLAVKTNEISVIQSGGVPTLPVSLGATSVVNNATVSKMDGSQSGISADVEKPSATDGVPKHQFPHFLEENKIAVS
| Sequence | E-score |
| --- | --- |
| ATGAGAAC | 0.15 |
| CGAGAGTA | 0.0929 |
| CGTTAAGA | 0.0428 |
| GGGCATTA | -0.12 |
| CTAGGCTA | -0.101 |
| CTCAAAAA | 0.154 |
| ACCGCGCC | -0.308 |
| CAGTAGCC | -0.18 |

Set 3
Target: CCND2, cyclin fold, Cln2 fusion (human)
Technique: yeast growth competition, sequencing
Medium: yeast
Setting: weak parent motif
Reference: not given
Direction: higher = stronger binding
Starting sequence: CDC42EP1 docking peptide (human); SLVVGKLSFDSSP; partner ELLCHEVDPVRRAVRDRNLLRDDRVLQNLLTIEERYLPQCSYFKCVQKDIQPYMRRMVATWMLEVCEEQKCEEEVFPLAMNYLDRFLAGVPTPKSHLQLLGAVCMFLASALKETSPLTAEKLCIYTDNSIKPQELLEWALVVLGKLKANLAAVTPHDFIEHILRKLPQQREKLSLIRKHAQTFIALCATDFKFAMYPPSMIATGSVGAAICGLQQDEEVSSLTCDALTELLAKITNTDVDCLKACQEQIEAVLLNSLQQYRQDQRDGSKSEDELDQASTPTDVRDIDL
| Change | normalised enrichment score |
| --- | --- |
| SLVVGALSFDSSP [K6A] | -0.142 |
| SLVVGKLSADSSP [F9A] | -0.0512 |
| ALVVGKLSFDSSP [S1A] | 0.1 |
| SAVVGKLSFDSSP [L2A] | 0.089 |
| SLVVGKLSFASSP [D10A] | 0.137 |
| SLVVGKLSFDASP [S11A] | 0.103 |
| SLVVGKASFDSSP [L7A] | 0.0396 |

Other studies, line by line
| Sequence | target | observed | form | tested at | endpoint | result |
| --- | --- | --- | --- | --- | --- | --- |
| RGRKPIFRK | HLA class I histocompatibility antigen, A alpha chain, allele A*80:01 (Homo sapiens, UniProt P04439) | peptide-MHC binding | peptide | concentration not given | binding | inactive |

For quick reference, copied from above (set 2):
| Sequence | E-score |
| --- | --- |
| CTAGGCTA | -0.101 |
| CTCAAAAA | 0.154 |
| ACCGCGCC | -0.308 |
| CAGTAGCC | -0.18 |
